Published values of several laboratories.
Every numbered part comes from another study and shows a few of its results, in no order.

Study 1
Target: Histone acetyltransferase KAT6A, both winged helices, GST fusion (KAT6A, Homo sapiens, UniProt Q92794, residues 1-181)
Method: protein binding microarray
Form: double-stranded DNA, one strand shown
Medium: in vitro
Concentration: not given
Setting: 8-mer, flanks averaged, mean of 2 arrays, mostly near background
Baseline: not given
Reading: higher = stronger binding
Endpoint: E-score
Construct (chain): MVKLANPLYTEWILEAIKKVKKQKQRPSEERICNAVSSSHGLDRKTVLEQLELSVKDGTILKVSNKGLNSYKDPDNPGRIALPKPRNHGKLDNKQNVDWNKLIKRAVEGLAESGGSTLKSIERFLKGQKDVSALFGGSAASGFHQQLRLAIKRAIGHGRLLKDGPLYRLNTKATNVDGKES
GCACTAAC: 0.0411
AGTTTGGA: -0.133
ATTCATGA: 0.0445
CACCGCAA: 0.126
CCCTAGGG: -0.178
AGACTGGC: -0.12
AAATTCCA: -0.224
CCTTAGGA: -0.166
CACACCTG: -0.104
ATGTCGGC: 0.141
CTGTTTAA: 0.125
GACAGAGA: -0.0536
AACGCCCC: 0.0438
AACGATAT: -0.0463
CGGGGAAA: 0.192
GGCGACGA: -0.0276
GTAAATTA: -0.0193
CGGGCAAC: 0.259
CGTAGGAA: -0.0117
GTTTAAAA: -0.102

Study 2
Target: Prothrombin, mature alpha-thrombin (F2, Homo sapiens, UniProt P00734)
Method: aptamer microarray, sandwich
Form: DNA with 2'F-ANA
Medium: in vitro
Concentration: 200 nM
Setting: whole 15-mer aptamer, many near background
With: Cy3 exosite-II aptamer, 400 nM
Reading: higher = stronger binding
Endpoint: mean fluorescence intensity
Sequence: GGTTGGTGTGGTTGG
2'F-ANA at 1 3 4 5 6 8 9 15: 71.6 a.u.
2'F-ANA at 3 4 6 8 9 10 11 13 14: 143 a.u.
2'F-ANA at 3 4 7 8 10 11 12 13 14: 198 a.u.
2'F-ANA at 2 6 9 11 12 13 14 15: 126 a.u.
2'F-ANA at 1 2 3 4 6 7 8 11 12 13 14: 69.9 a.u.
2'F-ANA at 1 3 5 7 10 11 12 15: 93.7 a.u.
2'F-ANA at 1 3 4 6 8 9 10 11 12 13 14 15: 53.9 a.u.
2'F-ANA at 1 2 3 4 6 7 9 11 12 13 14: 71.3 a.u.
2'F-ANA at 4 5 7 8 10 11 15: 64.7 a.u.
2'F-ANA at 1 2 3 5 6 9 13: 52.9 a.u.
2'F-ANA at 1 3 4 5 7 9 10 11 14 15: 77.5 a.u.
2'F-ANA at 7 8 9 12: 923 a.u.
2'F-ANA at 1 4 5 6 7 8 9 11 12 13 14 15: 48.3 a.u.
2'F-ANA at 1 2 3 5 7 9 10 11 12 13: 66.3 a.u.
2'F-ANA at 3 4 5 6 8 9 10 12 13 14 15: 49.4 a.u.
2'F-ANA at 4 6 7 8 9 10 13 14 15: 58.2 a.u.
2'F-ANA at 1 2 5 7 10 15: 45.5 a.u.
2'F-ANA at 1 3 7 15: 410 a.u.
2'F-ANA at 3 5 7 9 13 14 15: 54.3 a.u.
2'F-ANA at 4 5 8 12 14: 45.4 a.u.
2'F-ANA at 2 3 11 12: 1120 a.u.
2'F-ANA at 3 5 6 8 9 11 13 14 15: 54.7 a.u.
2'F-ANA at 1 2 6 10 12 14: 48.9 a.u.
2'F-ANA at 4 6 7 8 9 14: 175 a.u.
2'F-ANA at 3 6 7 10 11 14 15: 362 a.u.

Study 3
Target: RNA binding protein fox-1 homolog 2, RRM domain, GST-SBP tag (RBFOX2, Homo sapiens, UniProt O43251-10, residues 100-194)
Method: RNA Bind-n-Seq
Form: RNA
Medium: in vitro
Concentration: 365 nM
Setting: natural RNA segment, single round, ends assumed
Baseline: no-protein control
Reading: higher = stronger binding
Endpoint: RBNS enrichment (R)
Residues (chain): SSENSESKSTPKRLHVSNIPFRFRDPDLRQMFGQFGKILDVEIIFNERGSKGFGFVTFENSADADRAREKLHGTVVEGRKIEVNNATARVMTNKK
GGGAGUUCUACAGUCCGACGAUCCAUUUUAAGCAAAGGAAAAGUCUUGGGAUUGUAUGGGAAUAAAACUUGUUUGAAAAUUUGGAAUAGUGCUGCUGUCAGCUUAUUUUUCUGGUACUUGUAUUUUCUAUGUUUGGAAUUCUCGGGUGCCAA: 1.94
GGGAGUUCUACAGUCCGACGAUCUUUAUAUUAACCGCCACCUGUGGAUUUUGCAGUAAUUGCUAACACAUGCAGUUUUAAUGGGAAGUGGCUCUGCGCCUAAACGGAGUCCUAACGCUGCAUCAACGGGAGGGUGGAAUUCUCGGGUGCCAA: 0.388
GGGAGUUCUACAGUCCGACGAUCAACUUCAAAGCUUUAUUCUGUCUGCCUGAGAGGAUCCAUGGAAGAUGAUUCUCCCAAAAAGCAGAAAAAGAAAUGUCAGGUUAGAAGGACCCAAGUUCUAGGUGCACACUUGGAAUUCUCGGGUGCCAA: 0.407
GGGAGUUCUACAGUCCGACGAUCCUCAGAGCCCUGCCCUGCACCCUUGUACAGUGUCUGUGCCAUGGAUUUCGUUUUUCUUGGGGUACUCUUGAUGUGAAGAUAAUUUGCAUAUUCUAUUGUAUUAUUUGGAGUGGAAUUCUCGGGUGCCAA: 0.31
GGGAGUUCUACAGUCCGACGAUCAAGUUUUAGGGUCUGGGCUGAGUCAAGGUGAGUUCCUCUGCCAGGAAGCCCUUUCUAGGAGGUUGUGUCGGCCCCAGCAGGGGCUCUCAGCUUCUCCCCAUCCAGAAACCUGGAAUUCUCGGGUGCCAA: 0.338
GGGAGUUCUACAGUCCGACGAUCUUGUGCUUCUUCACUUACCCAUUAGCCAGGUUCUCAUUAGGUUUUGCUUGGGCCUCCCUGGCACUGAACCUUAGGCUUUGUAUGACAGUGAAGCAGCACUGUGAGUGGUUUGGAAUUCUCGGGUGCCAA: 0.662
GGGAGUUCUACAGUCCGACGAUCCCUUGAGCCUCAAAACCUGUUCUACCAUUGAAGGAGAGGAAGAUUGAAGUUGGCUUACAUUUCUACAGUGUUAGGGGCGUAGGAGAAUUGGGGCCAACAUCCCAUCAGAAUGGAAUUCUCGGGUGCCAA: 0.698
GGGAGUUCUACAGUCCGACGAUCUGGUGAGACUGCUAAUUGAUUCAGUGUAUGAUAGUUCACACGGGAUGAGAACCUUGGCCUUUAUCACCCAAACAAGAACUCUCUAUGAGAUUGGUUGACGUGAGUUGGUUUGGAAUUCUCGGGUGCCAA: 0.857

Study 4
Target: Phosphate system positive regulatory protein PHO4, full length, GST-tagged (PHO4, Saccharomyces cerevisiae, UniProt P07270, residues 1-312)
Method: competition protein-binding microarray
Form: double-stranded DNA, one strand shown
Medium: in vitro
Concentration: 2 µM
Setting: whole 60-bp probe, lowest competitor level
With: Cbf1 competitor, 0.05 µM
Reading: higher = stronger binding
Endpoint: fluorescence intensity
Target sequence (chain): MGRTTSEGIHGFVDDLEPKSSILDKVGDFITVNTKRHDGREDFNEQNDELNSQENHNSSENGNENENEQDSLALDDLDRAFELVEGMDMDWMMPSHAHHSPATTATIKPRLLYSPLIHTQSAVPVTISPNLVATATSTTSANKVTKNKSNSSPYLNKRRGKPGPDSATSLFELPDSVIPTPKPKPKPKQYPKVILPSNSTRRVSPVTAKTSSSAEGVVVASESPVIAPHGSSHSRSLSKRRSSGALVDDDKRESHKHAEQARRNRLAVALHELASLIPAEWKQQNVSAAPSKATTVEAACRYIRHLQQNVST
CTTGCTCACTTCTGGCGTGTTCAAGTGGGGATCTGTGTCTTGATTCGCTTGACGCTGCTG: 4850 a.u.
TGAGTTAAGTGTAGGCATGTGACTCACTTCTGGTAAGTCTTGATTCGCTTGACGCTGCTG: 9740 a.u.
CATACCCAACCTTGAGTTGTGGGTGAAGATATTTGTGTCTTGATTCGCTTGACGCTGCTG: 4590 a.u.
ATGTTCCTGAGGTTCCACGTGCAAAGCTAGAAGAAAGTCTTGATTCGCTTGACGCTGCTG: 17800 a.u.
AAAGCGGTAATTTGCACAGTGGGTGCAGATATCTATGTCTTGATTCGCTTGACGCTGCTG: 4590 a.u.
CACCTCTCGACCCGTCACGTCAAGGTTTGCTGCCTCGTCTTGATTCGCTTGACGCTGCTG: 4570 a.u.
ATTTTTACGGTTACCCACGTACTGCCAGCCATTAGAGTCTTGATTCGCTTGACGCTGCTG: 7760 a.u.
CATACCCAACCTTGGGCTGTGGGTGAAGATATTTGTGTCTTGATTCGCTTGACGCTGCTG: 3860 a.u.
CGTCCTAGCGATTGACTTGTGGGTGCCATGAGGAAGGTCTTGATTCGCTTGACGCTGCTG: 7220 a.u.
CAGTTCATTTACTTCCACGTGTAGATGTGAAGGAATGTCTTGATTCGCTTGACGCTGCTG: 17300 a.u.
CTTCTGTAAATTTGCCAAGTGGGTGGACGCGCCCCGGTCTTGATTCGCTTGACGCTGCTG: 4380 a.u.
GTCTTGTCTCATTTTCACGTGCAGTTCCCCACTTCAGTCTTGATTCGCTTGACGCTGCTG: 13200 a.u.
CATACCCAACCTTGGAAGGTGGGTGAAGATATTTGTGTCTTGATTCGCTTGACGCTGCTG: 4930 a.u.
GGTTTAACAGATCTGGACGTGATGGTTTTTTTTTTTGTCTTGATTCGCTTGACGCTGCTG: 4260 a.u.
GTCCGATGTCCCCATCACGTTCATCACAACATTCCTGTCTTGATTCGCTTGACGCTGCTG: 11100 a.u.
CATACCCAACCTTGACAAGTGGGTGAAGATATTTGTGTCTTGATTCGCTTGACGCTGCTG: 3900 a.u.
AAATTACTAAGTTGGTCCGTGGGTGACGCCGTATGAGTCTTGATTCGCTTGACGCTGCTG: 7180 a.u.
CTTCTGTAAATTTAGCACGTGTTTTGACGCGCCCCGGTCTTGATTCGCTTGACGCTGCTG: 17300 a.u.

For quick reference, copied from above (study 4):
CGTCCTAGCGATTGACTTGTGGGTGCCATGAGGAAGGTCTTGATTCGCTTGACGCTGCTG: 7220 a.u.
CAGTTCATTTACTTCCACGTGTAGATGTGAAGGAATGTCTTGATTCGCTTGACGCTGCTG: 17300 a.u.
CTTCTGTAAATTTGCCAAGTGGGTGGACGCGCCCCGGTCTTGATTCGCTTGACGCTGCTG: 4380 a.u.
GTCTTGTCTCATTTTCACGTGCAGTTCCCCACTTCAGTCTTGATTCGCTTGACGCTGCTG: 13200 a.u.
CATACCCAACCTTGGAAGGTGGGTGAAGATATTTGTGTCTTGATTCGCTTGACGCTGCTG: 4930 a.u.
